Measured values gathered from unrelated publications.
Protocols differ between the studies behind these lines. Several values in a cell are separate wells, animals, samples, runs or records. ± marks the error that the study gave.
USP13 ZnF-UBD domain: Ubiquitin carboxyl-terminal hydrolase 13, ZnF-UBD domain (USP13, Homo sapiens, UniProt Q92995)
Sequence of UniProt Q92995 (whole entry, looked up): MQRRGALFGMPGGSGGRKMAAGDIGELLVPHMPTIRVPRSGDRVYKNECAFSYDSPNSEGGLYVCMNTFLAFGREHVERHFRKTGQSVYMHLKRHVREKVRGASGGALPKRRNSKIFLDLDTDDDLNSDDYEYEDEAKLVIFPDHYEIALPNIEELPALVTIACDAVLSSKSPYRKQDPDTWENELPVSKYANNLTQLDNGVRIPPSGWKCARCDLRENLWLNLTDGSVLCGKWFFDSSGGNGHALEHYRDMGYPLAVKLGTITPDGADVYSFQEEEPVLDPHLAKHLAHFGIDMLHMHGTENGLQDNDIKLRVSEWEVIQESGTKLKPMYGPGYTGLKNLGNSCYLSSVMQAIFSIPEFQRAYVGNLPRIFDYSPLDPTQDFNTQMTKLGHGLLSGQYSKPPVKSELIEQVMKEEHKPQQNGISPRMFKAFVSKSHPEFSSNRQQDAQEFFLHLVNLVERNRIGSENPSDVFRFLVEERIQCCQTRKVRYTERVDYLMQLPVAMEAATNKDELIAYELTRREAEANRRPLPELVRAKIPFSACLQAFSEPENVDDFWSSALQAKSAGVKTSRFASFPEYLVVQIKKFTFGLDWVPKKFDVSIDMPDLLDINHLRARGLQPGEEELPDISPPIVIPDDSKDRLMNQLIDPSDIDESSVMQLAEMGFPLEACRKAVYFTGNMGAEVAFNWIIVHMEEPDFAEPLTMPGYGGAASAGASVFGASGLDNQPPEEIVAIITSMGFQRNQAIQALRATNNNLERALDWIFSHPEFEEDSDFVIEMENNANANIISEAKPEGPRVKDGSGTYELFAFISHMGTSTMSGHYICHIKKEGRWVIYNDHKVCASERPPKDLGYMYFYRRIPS

Structure (SMILES) | tested on | assay | test system | conditions | scale | endpoint | result
C[N+](C)(C)Cc1cccc(N=Nc2cccc(C[N+](C)(C)C)c2)c1 | frog |  | atrial fibres | micromolar |  | slow inward current | increased
COc1cc2c(c(OC)c1OC)-c1ccc(OC)c(=O)cc1[C@@H](NC(C)=O)CC2 | human seizure ion channel panel | ion current, automated patch clamp |  |  |  | lowest IC30 across channels | > 30 µM
C[C@@H]1CC[C@H]2[C@@H](/C1=C/C[C@H]1[C@]3(C)CCC(=O)C(C)(C)O[C@H]3CC[C@]1(C)O)C(C)(C)CC[C@]2(C)O | P-glycoprotein human | inhibitor, efflux | KB-C2 | 10 µM, 120 min, with: [3H]-paclitaxel |  | paclitaxel remaining | 64.3%
CN1CCN(CCNCc2cc3ccccc3nc2SCc2ccccc2)CC1 | electron transport chain | proton pumping, ACMA quenching | Pseudomonas aeruginosa inverted membrane vesicles | 32 µg/mL, with: NADH |  | inhibition | 86%
C=CC(=O)N1CCC(C(=O)NCC(=O)N2CCN(c3nc(-c4cnc(N)nc4C(F)F)nc(N4CCOCC4)n3)CC2)CC1 | PKB/Akt | Ser473 phosphorylation, in-cell western | SK-OV-3 |  |  | IC50 | 0.0813 µM
CCCCCCCC(=O)OC[C@H](COP(=O)(O)O[C@@H]1[C@H](O)[C@H](O)[C@@H](OP(=O)(O)O)[C@H](OP(=O)(O)O)[C@H]1O)OC(=O)CCCCCCC | Kv7.2/Kv7.3(EEE) mutant channel | channel open probability, activator, fitted PIP2 binding model |  | model 5, efficacy fixed to wild type | reference: channel without bound PIP2 | efficacy factor E1 | 3.99
Cc1cccc(C)c1NC(=O)C1CCCCN1C (centres unmarked) | H+/organic cation antiporter | cell uptake | hCMEC/D3 |  |  | Km | 137 µM
Oc1ccccc1-c1n[nH]cc1-c1ccnc2ccccc12 | DUN1 (Candida albicans) | kinase binding, MIB/MS competition | Candida albicans lysate | 1 µM | reference: DMSO | log2 fold change | -0.01
c1ccc(CSc2nc3ccccc3cc2CNCc2ccc(CN3CCCC3)cc2)cc1 | electron transport chain | proton pumping, ACMA quenching | Pseudomonas aeruginosa inverted membrane vesicles | 2 µg/mL, with: NADH |  | inhibition | 8%
NC(=O)c1cnc2[nH]ccc2c1N[C@@H]1[C@@H]2CC3C[C@H]1C[C@@](O)(C3)C2 |  | CD4+ effector T cells, flow cytometry | Caucasian humans, peripheral blood | 200 mg single dose | reference: baseline | percent change | 0.05%
CCS(=O)(=O)c1nc(C2CC2)cc(C(F)(F)F)n1 | importin alpha/beta-1 | cMyc nuclear import, high content imaging | HeLa Kyoto reporter | 0.05 µM, 2 h |  | cells with nuclear reporter | 91.7% and 69.1% and 96.1% and 95%
COc1nc(NCc2cn(-c3ccc(C(=O)Nc4ccc(C(F)(F)F)cc4)cc3)nn2)nc(OC)n1 | calf thymus DNA | Tb3+ fluorescence |  |  | no further fluorescence increase above | concentration of maximal DNA damage | 4 µM
C=C1CC(C(=O)Nc2cc(C(=O)NC)cc(-c3ccc(C(C)=O)s3)c2OC)C1 | TREM2 (human) | reporter gene, agonist, NFAT luciferase reporter | Jurkat-NFAT cells overexpressing TREM2 | 25 µM, 4 h | reference: control | luciferase activity | ~240%
CN(C)CCOC(C)(c1ccccc1)c1ccccn1 (centres unmarked) | H+/organic cation antiporter | cell uptake | hCMEC/D3 |  |  | Vmax | 604 pmol/min/mg protein
O=C(NN=Cc1ccc(C[n+]2ccccc2)cc1)c1ccc2ccc3ccc(C(=O)NN=Cc4ccc(C[n+]5ccccc5)cc4)nc3c2n1.[Br-].[Br-] | telomeric G4 DNA hybrid-2 | FRET melting |  | 1 µM, DNA 0.2 µM |  | ΔTm | 36 °C
Nc1ncnc2c1ncn2[C@@H]1O[C@H](COP(=O)(O)OP(=O)(O)OP(=O)(O)O)[C@@H](O)[C@H]1O | P2Y receptor | calcium response, fura-2 imaging | 16HBE14o- cells | 1 µM |  | responding cells | 15.2 ± 3.8%
CC[S+]([O-])c1nc(-c2ccccc2)cc(C(F)(F)F)n1 (centres unmarked) | importin alpha/beta-1 | cMyc nuclear import, high content imaging | HeLa Kyoto reporter | 50 µM, 2 h |  | cells with nuclear reporter | 0.63% and 0.82% and 3.72% and 2.78%
CCOc1ccccc1OCCN[C@H](C)Cc1ccc(OC)c(S(N)(=O)=O)c1 | H+/organic cation antiporter | cell uptake | hCMEC/D3 |  |  | Km | 78.7 µM
O=C(O)CNC(=O)c1ccc(C(=O)N2CCC(c3ccc(Cl)cc3)CC2)cn1 | USP13 ZnF-UBD domain |  |  |  |  | Kd | 642 µM

Structure (SMILES) | tested on | assay | test system | conditions | scale | endpoint | result
COc1cc2c(cc1OC)C(=O)C(CC1CCN(Cc3ccccc3)CC1)C2 (centres unmarked) | human seizure ion channel panel | ion current, automated patch clamp |  |  |  | lowest IC30 across channels | 16.3 µM
COc1cc2cc(CNCCC3CCN(C4CCCC4)CC3)c(SCc3ccccc3)nc2c(OC)c1OC | electron transport chain | proton pumping, ACMA quenching | Pseudomonas aeruginosa inverted membrane vesicles | 2 µg/mL, with: NADH |  | inhibition | 19%
CCN(CC)CC(=O)Nc1c(C)cccc1C | H+/organic cation antiporter | cell uptake | hCMEC/D3 |  |  | Vmax | 3680 pmol/min/mg protein
COc1cccc2c1C(=O)c1c(O)c3c(c(O)c1C2=O)C[C@@](O)(C(=O)CO)C[C@@H]3O[C@H]1C[C@H](N)[C@H](O)[C@H](C)O1 | calf thymus DNA | Tb3+ fluorescence |  |  | no further fluorescence increase above | concentration of maximal DNA damage | 4 µM
O=C(CCCN1CCC(O)(c2ccc(Cl)cc2)CC1)c1ccc(F)cc1 | H+/organic cation antiporter | cell uptake | hCMEC/D3 |  |  | Vmax | 1840 pmol/min/mg protein
CC(Nc1nc(N2CCCC2)nc2ccccc12)c1ccccc1 (centres unmarked) | transportin-1/2 | FUS nuclear import, high content imaging | HeLa Kyoto reporter | 1 µM, 2 h |  | cells with nuclear reporter | 94.6%
Cn1cc(-c2ccc(-c3cncc(Cl)c3N3CCC4(CCNC4=O)CC3)cc2)cn1 | COLO 205 | gene expression, microarray, measured: KANK1 mRNA |  | concentration not given, 6 h | reference: untreated cells | log2 fold change | -2.91
c1coc(-c2n[nH]cc2-c2ccnc3ccccc23)c1 | CDC7 (Candida albicans) | kinase binding, MIB/MS competition | Candida albicans lysate | 1 µM | reference: DMSO | log2 fold change | -0.2
CC12CC3CC(C)(C1)CC(N)(C3)C2 | human seizure ion channel panel | ion current, automated patch clamp |  |  |  | lowest IC30 across channels | 1.78 µM
CC(=O)ON=C1C=CC(=C(C#N)c2ccccc2)C=C1 | Leishmania major CK1 | enzyme activity, inhibitor, ADP-Glo |  | 20 µM, about MIC, with: ATP 10 µM |  | remaining activity | 98%
Cc1nc2n(c(=O)c1CCN1CCC(c3noc4cc(F)ccc34)CC1)CCCC2 | H+/organic cation antiporter | cell uptake | hCMEC/D3 |  |  | Vmax | 2420 pmol/min/mg protein
CNC(=O)c1cc(Oc2ccc(NC(=O)Nc3ccc(Cl)c(C(F)(F)F)c3)cc2)ccn1 | PKCβII (human) | kinase activity, inhibitor |  | 10 µM |  | inhibition | -2%
c1ccc(CSc2nc3ccc(-c4ccccc4)cc3cc2CNCCC2CCN(C3CCCC3)CC2)cc1 | electron transport chain | proton pumping, ACMA quenching | Pseudomonas aeruginosa inverted membrane vesicles | 2 µg/mL, with: NADH |  | inhibition | 25%
O=C1c2cccc3c2[C@H](CCC3)CN1[C@@H]1CN2CCC1CC2 | H+/organic cation antiporter | cell uptake | hCMEC/D3 |  |  | Km | 41.4 µM
NCCNC(=O)c1ccc(Cl)cn1 | human seizure ion channel panel | ion current, automated patch clamp |  |  |  | lowest IC30 across channels | > 30 µM
CC(C)n1ccnc1CN1CCN(Cc2nccn2C(C)C)CCN(Cc2nccn2C(C)C)CC1 | Zn2+ | potentiometric titration |  | pH 7.4, ligand and metal 2 mM |  | pZn | > 12.8
CSc1nc(C)c(CCC(=O)O)c(=O)[nH]1 | USP13 ZnF-UBD domain |  |  |  |  | Kd | > 1000 µM
O=C(O[C@H]1CN2CCC1CC2)N1CCc2ccccc2[C@@H]1c1ccccc1 | H+/organic cation antiporter | cell uptake | hCMEC/D3 |  |  | Vmax | 1810 pmol/min/mg protein
COc1cc2cc(CNCCN3CCN(C)CC3)c(SCc3ccccc3)nc2c(OC)c1OC | electron transport chain | proton pumping, ACMA quenching | Pseudomonas aeruginosa inverted membrane vesicles | 2 µg/mL, with: NADH |  | inhibition | 11%

Excerpt of the above:
Structure (SMILES) | tested on | assay | test system | conditions | scale | endpoint | result
CC(Nc1nc(N2CCCC2)nc2ccccc12)c1ccccc1 (centres unmarked) | transportin-1/2 | FUS nuclear import, high content imaging | HeLa Kyoto reporter | 1 µM, 2 h |  | cells with nuclear reporter | 94.6%
NC(=O)c1cnc2[nH]ccc2c1N[C@@H]1[C@@H]2CC3C[C@H]1C[C@@](O)(C3)C2 |  | CD4+ effector T cells, flow cytometry | Caucasian humans, peripheral blood | 200 mg single dose | reference: baseline | percent change | 0.05%
